Experimental data of several laboratories.
Target: Tyrosine-protein kinase BTK (BTK, Homo sapiens, UniProt Q06187)
Sequence of UniProt Q06187 (whole entry, looked up): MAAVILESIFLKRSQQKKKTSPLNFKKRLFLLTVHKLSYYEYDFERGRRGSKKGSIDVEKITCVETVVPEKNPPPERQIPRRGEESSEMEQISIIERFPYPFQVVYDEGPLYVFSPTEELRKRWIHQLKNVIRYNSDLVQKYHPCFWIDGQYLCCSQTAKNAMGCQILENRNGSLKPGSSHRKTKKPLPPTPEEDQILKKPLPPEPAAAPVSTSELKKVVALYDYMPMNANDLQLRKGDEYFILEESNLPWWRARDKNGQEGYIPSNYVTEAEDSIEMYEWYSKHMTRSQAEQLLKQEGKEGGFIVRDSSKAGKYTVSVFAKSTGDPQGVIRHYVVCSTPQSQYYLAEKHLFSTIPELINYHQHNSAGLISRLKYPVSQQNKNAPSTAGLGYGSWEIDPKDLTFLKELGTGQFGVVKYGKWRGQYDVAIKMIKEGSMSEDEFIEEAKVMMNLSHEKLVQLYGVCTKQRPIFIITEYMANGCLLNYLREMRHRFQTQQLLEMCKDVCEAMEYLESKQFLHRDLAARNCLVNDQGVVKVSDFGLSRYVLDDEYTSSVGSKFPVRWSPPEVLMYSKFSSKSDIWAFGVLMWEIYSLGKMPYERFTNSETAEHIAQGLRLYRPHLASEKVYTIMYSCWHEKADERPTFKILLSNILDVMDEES

| Compound | assay | test system | setting | scale | quantity | result |
| --- | --- | --- | --- | --- | --- | --- |
| CN(C1COC1)C(C)(C)/C=C(\C#N)C(=O)N1CCC[C@H]1Cn1nc(-c2ccc(Oc3ccccc3)cc2F)c2c(N)ncnc21 | fluorescence competition |  |  |  | residence time | 10100 min |
| Cc1cccc(C)c1Nc1nn(C)c2nc(Nc3ccc4c(c3)CN(CC3CCN(c5ccc6c(c5)C(=O)N(C5CCC(=O)NC5=O)C6=O)CC3)CC4)ncc12 (centres unmarked) | degrader, western blot | TMD8 | 100 nM, 4 h | baseline: vehicle | remaining protein | < 10% |
| Nc1ncnc2c1c(-c1ccc(Oc3ccccc3)cc1)nn2C1CCCN(C(=O)C2CC(Br)=NO2)C1 (mixture of isomers) | competitive in-gel fluorescence |  | 10 µM, 4 h, together with: alkyne probe 1 µM |  | probe labeling blockade | inhibited |
| N#CCC(=O)N1CCC[C@H]1Cn1nc(-c2ccc(Oc3ccccc3)cc2F)c2c(N)ncnc21 | fluorescence competition |  |  |  | residence time | ≤ 5 min |
| C=CC(=O)N1CCc2ccc(-n3c(=O)ccc4cnc5ccc(-c6cnn(C)c6)cc5c43)cc21 | degrader | HEK293T | 1 µM, together with: cycloheximide |  | degradation | ~50% |
| COc1cc(C(=O)NC2CCC(N3CCN(CC4CCC5(CCCC5)C4)CC3)CC2)c(F)cc1Nc1ncc2c(n1)N(C1CCCC1(F)F)CC(F)(F)C(=O)N2C (centres unmarked) | cell-free assay, TR-FRET |  | 10 µM |  | inhibition | 3.1% |
| COc1ccc(Nc2nc(Nc3ccc(OC)c(OC)c3)c3nc[nH]c3n2)cc1OC | native mass spectrometry | crude cell lysate | 1 µM |  | fraction bound | 24% |
| C#CCSc1nc(Sc2nnnn2-c2ccccc2)c2nnn(Cc3ccccc3Cl)c2n1 | enzyme activity, inhibitor |  | 10 µM |  | inhibition | < 15% |

Some of these lines once more:
| Compound | assay | test system | setting | scale | quantity | result |
| --- | --- | --- | --- | --- | --- | --- |
| Nc1ncnc2c1c(-c1ccc(Oc3ccccc3)cc1)nn2C1CCCN(C(=O)C2CC(Br)=NO2)C1 (mixture of isomers) | competitive in-gel fluorescence |  | 10 µM, 4 h, together with: alkyne probe 1 µM |  | probe labeling blockade | inhibited |
